Assay results gathered from unrelated publications.
PIK3CB: Phosphatidylinositol 4,5-bisphosphate 3-kinase catalytic subunit beta isoform (PIK3CB, Homo sapiens, UniProt P42338)
Neuronal acetylcholine receptor; alpha4/beta2: Neuronal acetylcholine receptor; alpha4/beta2 (Homo sapiens, UniProt P17787+P43681)

Cc1cc(-c2ccc3ccccc3c2)nnc1NCCN1CCN(C)CC1 gave an inhibition of 60% (Slc6a3 (Rattus norvegicus, UniProt P23977); monoamine uptake, inhibitor; rat synaptosomes; 10000 nM).
With CN(C)[C@H]1C[C@@]23CC[C@@]4(O2)C(=CC[C@]2(C)[C@@H](c5ccc6ccncc6c5)CC[C@H]24)C=C3[C@@H](O)[C@@H]1O the inhibition was 6.7% (PIK3CB; cell-free assay, inhibitor; 1 µM).
CC(C)[C@H]1NC(=O)C[C@H]2/C=C/CCSSC[C@@H](NC1=O)C(=O)N[C@H](Cc1cccc3ccccc13)C(=O)NCC(=O)O2 has an inhibition of -9% (SYK (Homo sapiens, UniProt P43405); enzyme activity, inhibitor; 10 µM).
The inhibition of N#Cc1ccc(N2N=C3c4ccc(C(=O)O)cc4CCC3C2C2CCCC2)cc1Cl (stereo not shown) is reported as 28% (NSD2 (Homo sapiens, UniProt O96028); enzyme activity, inhibitor; 10 µM).
For CCN(CC)CCOc1ccc(-c2nnn(Cc3ccc(OC)cc3)c2N)cc1, the inhibition was -1.23% (Androgen receptor (AR, Homo sapiens, UniProt P10275); radioligand binding; LNCaP; 10 µM, together with: 10000 nM radioligand).
For CN[C@@H]1[C@H](O)[C@H](NC)[C@H]2O[C@]3(O)[C@H](O[C@@H]2[C@H]1O)O[C@H](C)C[C@H]3NC(=O)Cc1cc(Cl)ccn1, the inhibition was -2% (Adra1b (Rattus norvegicus, UniProt P15823); ligand displacement, radioligand; 10 µM).
CCOC(=O)[C@](CC)(CCCSCCOCCOCCNC(=O)c1ccc(-c2c3ccc(=N)c(S(=O)(=O)O)c-3oc3c(S(=O)(=O)O)c(N)ccc23)c(C(=O)O)c1)NC(=O)c1ccc(C2CC2)c(Cc2ccc(F)cc2)n1 has an inhibition of -7% (Neuronal acetylcholine receptor; alpha4/beta2; ligand displacement, radioligand; 10 µM).
COc1ccc(F)cc1S(=O)(=O)Nc1cnc2c(c1)C(=O)NCCO2 has an inhibition of 12% (CXCR2 (Homo sapiens, UniProt P25025); ligand displacement, radioligand; 10 µM).
O=C(O)c1ccccc1/C=N/Nc1nc(-c2ccccc2Cl)cs1 has an inhibition of 1.03% (AKT1 (Homo sapiens, UniProt P31749); kinase activity; 1 µM).
With C[C@]12C(c3cccnc3)=C[C@H]3[C@@H](CCC4=C[C@H](O)CC[C@@]43C)[C@@H]1CC[C@@H]2O the inhibition was 87% (7-alpha-hydroxycholest-4-en-3-one 12-alpha-hydroxylase (Homo sapiens, UniProt Q9UNU6, W281F); inhibitor; 80 µM, together with: 7α-hydroxycholest-4-en-3-one).
Cc1ccc2c(n1)c(-c1cccc(S(C)(=O)=O)c1)c(C)n2C/C(F)=C/CN has an inhibition of 3% (CCKBR (Homo sapiens, UniProt P32239); ligand displacement, radioligand; 10 µM).
For C[C@H](NCc1ccc(-c2ccc(C(F)(F)F)cc2)cc1)C(N)=O, the inhibition was 41% (ALK (Homo sapiens, UniProt Q9UM73); cell-free assay, competition with immobilised ligand; 1 µM).
N[C@H](C(=O)N1CCCC1)C1CCN(c2nccc3c(-c4ncc(Cl)cc4Cl)cccc23)CC1 gave an inhibition of 33% (AGTR1 (Homo sapiens, UniProt P30556); functional response, antagonist; 10 µM).
The inhibition of CS(C)(=O)=Nc1ccc(-c2ccc(-c3nc4cc(O[C@@H]5CO[C@H]6[C@@H]5OC[C@H]6O)[nH]c4cc3F)cc2)cc1 is reported as -27% (DCLK2 (Homo sapiens, UniProt Q8N568); enzyme activity, inhibitor; 10 µM).
O=C(CN1CN(c2ccccc2)C2(CCN(C(=O)c3cnc4[nH]ncc4c3)CC2)C1=O)NCC(F)(F)F gave an inhibition of under 50% (CDK8 (Homo sapiens, UniProt P49336); inhibitor; concentration not given).
CN[C@@H]1[C@H](O)[C@H](NC)[C@H]2O[C@]3(O)[C@H](O[C@@H]2[C@H]1O)O[C@H](C)C[C@H]3NC(=O)Cc1ccc(Cl)cn1 has an inhibition of 1% (SLC6A4 (Homo sapiens, UniProt P31645); ligand displacement, radioligand; 10 µM).
The inhibition of CC(NC(=O)c1ccccc1F)c1nnc2ccccn12 (stereo not shown) is reported as 35.7% (Cholinesterase (BCHE, Homo sapiens, UniProt P06276); enzyme activity, inhibitor, Ellman; 10 µM).
CN(/N=C/c1ccccc1C(=O)O)c1nc(-c2ccccc2Cl)cs1 has an inhibition of 10.2% (PIK3CB; kinase activity; 1 µM).
CCc1nnc(-c2c(OC)cc(-c3cnc4cc(-c5cnn(C)c5)ccn34)cc2OC)o1 has an inhibition of 1% (HTR1A (Homo sapiens, UniProt P08908); agonist radioligand, radioligand binding; 10 µM, SafetyScreen44 5-HT1A).
With C/C(=N\OCCCN1CCCCC1)c1ccc(C(F)(F)F)cc1 the inhibition was 11.5% (Neuronal acetylcholine receptor; alpha4/beta2; calcium influx, antagonist, FLIPR; 10 µM).
With C=CC(=O)Nc1cc(-c2nn(C3CCC(N4CCN(C(C)=O)CC4)CC3)c3ncnc(N)c23)ccc1Oc1ccccc1 (stereo not shown) the inhibition was -9.6% (Ribosomal protein S6 kinase alpha-1, kinase domain 2 (RPS6KA1, Homo sapiens, UniProt Q15418); inhibitor, KiNativ profiling; biochemical; 2 µM).
O=C1c2ccccc2CCCN1CCCCN1CCN(c2cccc(Cl)c2Cl)CC1 has an inhibition of 87.6% (HTR6 (Homo sapiens, UniProt P50406); radioligand binding; concentration not given, together with: [3H]LSD).

Excerpt of the above:
With CN(C)[C@H]1C[C@@]23CC[C@@]4(O2)C(=CC[C@]2(C)[C@@H](c5ccc6ccncc6c5)CC[C@H]24)C=C3[C@@H](O)[C@@H]1O the inhibition was 6.7% (PIK3CB; cell-free assay, inhibitor; 1 µM).
CC(C)[C@H]1NC(=O)C[C@H]2/C=C/CCSSC[C@@H](NC1=O)C(=O)N[C@H](Cc1cccc3ccccc13)C(=O)NCC(=O)O2 has an inhibition of -9% (SYK (Homo sapiens, UniProt P43405); enzyme activity, inhibitor; 10 µM).
The inhibition of N#Cc1ccc(N2N=C3c4ccc(C(=O)O)cc4CCC3C2C2CCCC2)cc1Cl (stereo not shown) is reported as 28% (NSD2 (Homo sapiens, UniProt O96028); enzyme activity, inhibitor; 10 µM).
